Published values from different studies.
Compare with care: the assays were run in different laboratories. Several values in a cell are separate wells, animals, samples, runs or records. ± gives the spread as reported.

CC(C)C[C@H](NC(=O)[C@@H](Cc1c[nH]c2ccccc12)NC(=O)[C@H](Cc1ccc(O)cc1)NC(=O)[C@H](CO)NC(=O)[C@H](Cc1c[nH]c2ccccc12)NC(=O)[C@H](Cc1c[nH]cn1)NC(=O)[C@@H]1CCC(=O)N1)C(=O)N[C@@H](CCCNC(=N)N)C(=O)N1CCC[C@H]1C(=O)NCC(N)=O  patients, drug-related reproductive TEAEs (Chinese CPP children, girls; intramuscular, 22.5 mg, 12 months, day 1, month 6): 3.2%
CNC(=O)c1ccc(-c2cnc3ncc(Cc4ccc5ncccc5c4)n3n2)cc1F  Pneumonitis patients (Japanese patients; oral, 400 mg twice daily, grade 3/4): 1%
COc1cc(Nc2ncc3c(n2)-c2ccc(Cl)cc2C(c2c(F)cccc2OC)=NC3)ccc1C(=O)O  patients with adverse event (measured: increased TSH, grade 1; cancer patients, phase 1/2; oral, dose not given, together with: pembrolizumab): 13%
O=C(O)CCC(=O)O.[2H]C([2H])([2H])Oc1cc(C)c2[nH]ccc2c1CN1CC[C@@H](C2CC2)C[C@H]1c1ccc(C(=O)O)cc1  subjects with elevated LDL TEAE (multiple ascending dose; healthy Chinese subjects; 300 mg once daily): 0%
Cn1nc2c(=O)n(C3CC3)cnc2c1[C@](O)(c1cnc(C(F)(F)F)c(Cl)c1)C(F)(F)F  fraction unbound (mouse, plasma): 0.08
CNC(=O)c1ccc(-c2cnc3ncc(Cc4ccc5ncccc5c4)n3n2)cc1F  patients with adverse event (measured: Pyrexia; hepatocellular carcinoma patients; oral, 600 mg twice daily, expansion cohort, grade 3-4): 0%
COc1ccc2c(=O)n(C)c(-c3ccccc3)nc2c1  tissue concentration (male Sprague-Dawley rat, bladder; oral, 30 mg/kg, 4 h): 272 ng/g
COc1cc2c3c(n(CCCN4CCOCC4)c(=O)c2cc1OC)-c1cc2c(cc1C3=O)OCO2  t1/2 (beagle dog, female, plasma; intravenous infusion, 50 mg/m^2, 1 h infusion, vehicle 1): 5.9 ± 2.3 h
C[C@@H]1CN(CC(=O)N2CC(C)(C)c3ncc(Cc4ccc(F)cc4)cc32)[C@@H](CN2CCOC[C@H]2C)CN1  Tmax (cynomolgus monkey, male; oral, 5 mg/kg, median): 2 h
N[C@@H](CC(=O)N1CCn2c(nnc2C(F)(F)F)C1)Cc1cc(F)c(F)cc1F  AUC(0-2) divided by body mass index (human, male, plasma; oral, 100 mg single dose): 20.1 ± 9.35 ng·h/mL
Cc1ccc(N(C)C(=O)/C=C/c2ccco2)cc1  licking latency (hot plate test; mice; oral, 30 mg/kg single, 15 min): 14.5 ± 0.7 s
COc1ncc(-c2nc3c(n2C(C)C)[C@H](c2ccc(Cl)cc2)N(c2cc(Cl)cn(C)c2=O)C3=O)c(OC)n1  AUC(0-last) (LC-MS/MS; human, plasma; oral, 7.5 mg, cycle 1 day 14, low-dose arm): 330 ng·h/mL
FC(F)(F)c1ccc(CNc2ccc(Cc3c[nH]c4ncc(Cl)cc34)cn2)cn1  cognitive disorder incidence (patients with advanced solid tumours; oral, 1000 mg/day, TGCT cohort, all grades): 18%
CC(C(=O)NCC(=O)NCC(CNC(=O)CNC(=O)C(C)N1CCN(CC(=O)[O-])CCN(CC(=O)[O-])CCN(CC(=O)[O-])CC1)(CNC(=O)CNC(=O)C(C)N1CCN(CC(=O)[O-])CCN(CC(=O)[O-])CCN(CC(=O)[O-])CC1)CNC(=O)CNC(=O)C(C)N1CCN(CC(=O)[O-])CCN(CC(=O)[O-])CCN(CC(=O)[O-])CC1)N1CCN(CC(=O)[O-])CCN(CC(=O)[O-])CCN(CC(=O)[O-])CC1.[Gd+3].[Gd+3].[Gd+3].[Gd+3] (stereo not drawn)  Gd release (LC-ICP-MS; human plasma; 1 mmol Gd/L, per day, pH 7.4, 37°C): not detected
CN(C(=O)n1cnc(-c2cccnc2)c1)[C@H]1CC[C@H](O)CC1  tissue concentration (rat, cortex; oral, 10 mg/kg daily for 5 days, 72 h): 14.2 ± 1 ng/g
Cn1cc(-c2ccc(-c3cncc(Cl)c3N3CCC4(CCNC4=O)CC3)cc2)cn1  log2 fold change (COLO 205; gene expression, microarray, measured: KLF10 mRNA; concentration not given, 6 h; baseline: untreated cells): 1.56
C=CC(=O)NC1CCN(c2ncc3ncnc(Nc4ccc(Oc5ccc6c(c5)ncn6C)c(C)c4)c3n2)CC1  adverse events incidence (measured: general and administration site (SOC); human male; oral, dose not given, AEs, treatment-related, on drug, CTCAE): 6%
O=C(O)C1=CO[C@@H](O[C@@H]2O[C@H](CO)[C@@H](O)[C@H](O)[C@H]2O)[C@@H]2C(CO)=CC[C@H]12  accuracy (post-procedure stability; rat plasma; 1000 ng/mL, 1 h, room temperature): 98.2%
CCc1cc(C(=O)NC)c2nccc(N3CCc4c(cc(Cn5ccnc5)cc4-c4cn(C)nc4C(F)(F)F)C3=O)c2c1  change in clinical chemistry or haematology parameter (measured: CREA; Sprague Dawley rat; oral, 50 mg/kg once daily, 7 days; baseline: vehicle): -5.6%
Cc1cc([C@H]2C[C@H]3[C@@H](CF)SC(N)=N[C@@]3(c3ccc(F)cc3F)CO2)on1  plasma concentration (male 129/SVE wild-type mouse, plasma; subcutaneous, 100 mg/kg, 9 h): 41 nM
C/C=C/C(=O)Nc1ccc(-n2nc3c(=O)[nH]nc(N)c3c2-c2oc3ccc(C)cc3c2C)cc1  remaining compound (BALB/c nude mouse, whole blood; 1 µM, 5 h, 37 °C): 95%
N[C@@H](CCSC[C@H](N)C(=O)O)C(=O)O  log2 fold change (binding, MIDAS equilibrium dialysis LC-MS; A2AR-BRIL thermostabilized; concentration not given; baseline: no-protein control): 0.023
Cc1c(-c2ccc(N3CCc4cccc(C(=O)Nc5nc6ccccc6s5)c4C3)nc2C(=O)O)cnn1CC12CC3(C)CC(C)(C1)CC(OCCNCC[C@H](O)CO)(C3)C2  systemic vascular resistance change (anaesthetised male beagle dogs; intravenous infusion, 0.3 mg/kg/min, 105 min; baseline: vehicle): -8%
CC(C)[C@H](C(=O)Nc1ccc(C(=O)NO)cc1)c1ccccc1  accuracy (whole blood; 100 ng/mL, 3 h, 4 °C, stability on ice): 109%
O=C(Cc1ccc2ccccc2c1)Nc1cc(C2CCC2)[nH]n1  accuracy (mouse plasma; 0.5 ng/mL, 40 days, -80 °C, long-term storage stability): 99.6%
CC(C)n1c(Nc2cccnc2)nc2cnc(Nc3ccc(N4CCN(C)CC4)cc3)nc21  subjects with adverse event (measured: antithrombin III antibodies elevated; healthy male subjects; oral, 100 mg, study, together with: itraconazole): 0%
Cc1cc(C)c(CNC(=O)c2cc(Cl)c3c(c2C)O[C@@](C)([C@H]2CC[C@H](N(C)C)CC2)O3)c(=O)[nH]1  patients with grade ≥3 TEAE (measured: Thrombocytopenia; human patients; oral, 200 mg once daily, 1 day onset day 14): 4.2%
CCCC(CCC)C(=O)Oc1cccc(C(O)CCN)c1.O=CO (stereo not drawn)  ERG, scotopic, rod b-wave (Abca4-/-Rdh8-/- mice, photic damage; oral, 20 mg/kg, 7 days, flash intensity 0.1): 126 µV and 100 µV and 89.8 µV and 123 µV and 141 µV and 156 µV
CNC(=O)c1cc(Oc2ccc(NC(=O)Nc3ccc(Cl)c(C(F)(F)F)c3)c(F)c2)cc[n+]1[O-]  accuracy (long-term stability; mouse plasma; 75 ng/mL, 6 months, -80 °C): 100%
CNCCOC12CC3(C)CC(C)(CC(Cn4ncc(-c5ccc(N6CCc7cccc(C(=O)Nc8nc9ccccc9s8)c7C6)nc5C(=O)O)c4C)(C3)C1)C2  plasma concentration (anaesthetised male beagle dogs; intravenous bolus, 0.03 mg/kg, 90 min): 0 ng/mL
COc1cc(C(=O)N2CCC3(CC2)CC(=O)c2c(cnn2C(C)C)C3)cc(-c2ccc(C(=O)O)cc2)n1  placebo-adjusted change from baseline (measured: total cholesterol; human, fasting serum; 100 mg every 12 h, day 13, adjusted geometric mean; baseline: baseline and placebo): -9.5%
CC(C)c1nc(N(C)S(C)(=O)=O)nc(-c2ccc(F)cc2)c1/C=C/[C@@H](O)C[C@@H](O)CC(=O)O  subjects with adverse event (measured: vessel puncture site pain; healthy men; oral, dose not given, 8 days, treatment-emergent, crossover trial): 4.5%
c1ccc2c(c1)ccc1cc3c(ccc4ccccc43)cc12  literature range factor (PDMS-water partitioning; PAH compilation; baseline: maximum over minimum K): 2
CC(C)(C(=O)N1CCOc2c(C#N)cncc2C1)C(F)F  subjects with investigations TEAE (human, both sexes; oral, 10 mg single dose): 0%
COc1cccc(OC)c1-c1cc(C(=O)NC2(C(=O)O)C3CC4CC(C3)CC2C4)nn1-c1ccc(C(=O)N(C)CCCN(C)CCCN(C)C(=O)CN2CCN(CC(=O)[O-])CCN(CC(=O)[O-])CCN(CC(=O)[O-])CC2)cc1C(C)C.[177Lu+3] (stereo not drawn)  tumour-to-pancreas ratio (mouse HT-29 xenograft; 72 h, biodistribution; baseline: tumour over pancreas): 63.7
Cc1cc(Nc2ccc(S(F)(F)(F)(F)F)cc2)n2nc(C(C)(F)F)nc2n1  adverse event Diarrhoea (Plasmodium vivax malaria patients; oral, 400 mg): 0%
Cc1cc(C)c(CNC(=O)c2cc(Cl)c3c(c2C)O[C@@](C)([C@H]2CC[C@H](N(C)C)CC2)O3)c(=O)[nH]1  radioactivity recovery (human male, urine and feces; oral, 200 mg, 96 h; baseline: dose): 86.7%
O=C(O)C(O)CO (stereo not drawn)  log2 fold change (binding, MIDAS equilibrium dialysis LC-MS; A2AR-BRIL thermostabilized; concentration not given; baseline: no-protein control): 0.0331
N#Cc1ccc(-c2cnc3ccc(-c4ccc(C(=O)N5CCOCC5)cc4)cn23)cc1  placebo-corrected change from baseline (measured: QT interval; healthy volunteers; oral, 20 mg, fasted, time-averaged): -7.1 ms
COc1ccc2[nH]c([S@+]([O-])Cc3ncc(C)c(OC)c3C)nc2c1  AUC ratio (human, dried blood spots; 10 mg omeprazole, median, together with: fluvoxamine; baseline: with fluvoxamine over alone): 4.3
CC(C)C[C@H](N)C(=O)N[C@@H](Cc1c[nH]c2ccccc12)C(=O)N[C@@H](Cc1c[nH]c2ccccc12)C(=O)N[C@@H](CCCNC(=N)N)C(=O)N[C@@H](Cc1c[nH]c2ccccc12)C(=O)N[C@@H](Cc1c[nH]c2ccccc12)C(=O)N[C@@H](CCCNC(=N)N)C(=O)N[C@@H](Cc1c[nH]c2ccccc12)C(=O)N[C@@H](CCCNC(=N)N)C(=O)O  helix content (circular dichroism; 10 mM PBS; together with: peptide 150 µM): 1.94%
O=C(Nc1nc2cccc(-c3ccc(CN4CCS(=O)(=O)CC4)cc3)n2n1)C1CC1  treatment-emergent adverse events (measured: food allergy; human rheumatoid arthritis patients; oral, 30 mg once daily, 4 weeks, regardless of relatedness): 5.9%

Some of these lines once more:
CNCCOC12CC3(C)CC(C)(CC(Cn4ncc(-c5ccc(N6CCc7cccc(C(=O)Nc8nc9ccccc9s8)c7C6)nc5C(=O)O)c4C)(C3)C1)C2  plasma concentration (anaesthetised male beagle dogs; intravenous bolus, 0.03 mg/kg, 90 min): 0 ng/mL
CNC(=O)c1ccc(-c2cnc3ncc(Cc4ccc5ncccc5c4)n3n2)cc1F  Pneumonitis patients (Japanese patients; oral, 400 mg twice daily, grade 3/4): 1%
Cn1nc2c(=O)n(C3CC3)cnc2c1[C@](O)(c1cnc(C(F)(F)F)c(Cl)c1)C(F)(F)F  fraction unbound (mouse, plasma): 0.08
COc1ncc(-c2nc3c(n2C(C)C)[C@H](c2ccc(Cl)cc2)N(c2cc(Cl)cn(C)c2=O)C3=O)c(OC)n1  AUC(0-last) (LC-MS/MS; human, plasma; oral, 7.5 mg, cycle 1 day 14, low-dose arm): 330 ng·h/mL
COc1cc(Nc2ncc3c(n2)-c2ccc(Cl)cc2C(c2c(F)cccc2OC)=NC3)ccc1C(=O)O  patients with adverse event (measured: increased TSH, grade 1; cancer patients, phase 1/2; oral, dose not given, together with: pembrolizumab): 13%
